Experimental data of several laboratories.
Lines come from different studies, so protocols differ. ± marks the error that the study gave.
Target: Receptor tyrosine-protein kinase erbB-2 (ERBB2, Homo sapiens, UniProt P04626)

`[2H]c1cc(C)c(NC(=O)c2cnc(Nc3cc(N4CCCCC4)nc(C)n3)s2)c(Cl)c1` gave an inhibition of under 30% (0.01 µM).
`CCCC[C@H](NC(=O)[C@H](CCC(=O)O)NC(=O)[C@H](CCCCN)NC(=O)[C@H](CO)NC(=O)[C@H](Cc1ccccc1)NC(C)=O)C(=O)N[C@@H](CCCNC(=N)N)C(=O)N[C@@H](CC(N)=O)C(=O)N[C@@H](CCCNC(=N)N)C(=O)N[C@@H](Cc1ccncc1)C(=O)N[C@@H](Cc1c[nH]c2ccccc12)C(=O)N[C@@H](CCCC(=O)NCCN(CC(=O)NCCN(CC(=O)NCCN(CC(=O)NCCN(CC(N)=O)C(=O)Cn1cnc2c(=O)[nH]c(N)nc21)C(=O)Cn1ccc(N)nc1=O)C(=O)Cn1ccc(N)nc1=O)C(=O)Cn1cnc2c(=O)[nH]c(N)nc21)C(=O)N[C@@H](CS)C(=O)N[C@@H](C)C(=O)NC1(C(=O)N[C@@H](CC(=O)O)C(=O)N2CCC[C@H]2C(=O)N[C@@H](CC(N)=O)C(=O)N[C@@H](CC(C)C)C(=O)N[C@H](C(=O)N[C@@H](CC(N)=O)C(=O)N[C@@H](CCC(N)=O)C(=O)N[C@@H](CCC(N)=O)C(=O)N[C@@H](CCCCN)C(=O)N[C@@H](CCCNC(=N)N)C(=O)N[C@@H](C)C(=O)N[C@@H](CCCCNC(=O)CN(CCNC(=O)CN(CCNC(=O)CN(CCNC(=O)CN(CCNC(=O)[C@H](CCCNC(=N)N)NC(C)=O)C(=O)Cn2ccc(N)nc2=O)C(=O)Cn2cnc3c(=O)[nH]c(N)nc32)C(=O)Cn2cnc3c(=O)[nH]c(N)nc32)C(=O)Cn2ccc(N)nc2=O)C(=O)N[C@H](C(=O)N[C@@H](CCCNC(=N)N)C(=O)N[C@@H](CO)C(=O)N[C@H](C(=O)N[C@@H](Cc2ccc(O)cc2)C(=O)N[C@@H](CCC(=O)O)C(=O)N[C@@H](CCC(=O)O)C(=O)NCC(N)=O)[C@@H](C)CC)[C@@H](C)CC)[C@@H](C)O)CCCCCC1` has an enrichment of -0.67 (binding, affinity selection mass spectrometry; 1 h, 4 °C, unit not given; baseline: control-subtracted).
`O=C(NC1CCC1)c1ccc2nc(-c3cccc(NS(=O)(=O)NCCN4CCCCC4)c3)cn2c1` has a remaining activity of 69% (enzyme activity; 10 µM).
With `Cc1nc(Nc2ncc(C(=O)Nc3c(C)cccc3Cl)s2)cc(N2CCN(CCO)CC2)n1` the inhibition was 90.1% (kinase activity, inhibitor, Kinase-Glo MAX; 10 µM).
`C=CC(=O)N1CCC[C@@H](n2nc(-c3ccc(Oc4ccccc4)cc3)c3c(N)ncnc32)C1` gave a remaining activity of 114% (0.1 µM).
`CC#CC(=O)N1CCC[C@H]1c1nc(-c2ccc(C(=O)Nc3ccccn3)cc2)c2c(N)nccn12` has a remaining activity of 99.5 ± 1.3% (kinase activity, inhibitor, HotSpot radiometric; 100 nM, added: ATP 10 µM).
The remaining binding of `C=CC(=O)N1CCC(COCC(=O)N2CCN(c3nc(-c4cnc(N)nc4C(F)F)nc(N4CCOC[C@@H]4C)n3)CC2)CC1` is reported as 100% (KINOMEscan; 1 µM).
`COc1ccc(F)cc1C(=O)NCc1ccc(-c2nn([C@@H](C)C(F)(F)F)c(N)c2C(N)=O)cc1` has a remaining activity of 66.2 ± 1.3% (kinase activity, inhibitor, HotSpot radiometric; 1000 nM, added: ATP at Km).
`C#Cc1cccc(Oc2ccc(-c3nn([C@@H]4CCCN(C(=O)C=C)C4)c4ncnc(N)c34)cc2)c1` gave an SILAC ratio of 20 (ABPP-SILAC; 1 µM, 1 h; baseline: DMSO).
`C=CC(=O)N1CCC[C@@H](n2nc(-c3ccc(Oc4ccccc4)cc3)c3c(N)ncnc32)C1` has a remaining activity of 8.1 ± 0.4% (kinase activity, inhibitor, HotSpot radiometric; 100 nM, added: ATP 10 µM).
`CC[C@H](C)[C@H](NC(=O)[C@H](CCCCNC(=O)CN(CCNC(=O)CN(CCNC(=O)CN(CCNC(=O)CN(CCNC(=O)[C@H](CCCNC(=N)N)NC(C)=O)C(=O)Cn1ccc(N)nc1=O)C(=O)Cn1cnc2c(=O)[nH]c(N)nc21)C(=O)Cn1cnc2c(=O)[nH]c(N)nc21)C(=O)Cn1ccc(N)nc1=O)NC(=O)[C@H](C)NC(=O)[C@H](CCCNC(=N)N)NC(=O)[C@H](CCCCN)NC(=O)[C@H](CCC(N)=O)NC(=O)[C@H](CCC(N)=O)NC(=O)[C@H](CC(N)=O)NC(=O)[C@@H](NC(=O)[C@H](CC(C)C)NC(=O)[C@H](CC(N)=O)NC(=O)[C@@H]1CCCN1C(=O)[C@H](CC(=O)O)NC(=O)[C@H](CC(C)C)NC(=O)[C@H](C)NC(=O)[C@H](CS)NC(=O)[C@H](CCCC(=O)NCCN(CC(=O)NCCN(CC(=O)NCCN(CC(=O)NCCN(CC(N)=O)C(=O)Cn1cnc2c(=O)[nH]c(N)nc21)C(=O)Cn1ccc(N)nc1=O)C(=O)Cn1ccc(N)nc1=O)C(=O)Cn1cnc2c(=O)[nH]c(N)nc21)NC(=O)[C@H](Cc1c[nH]c2ccccc12)NC(=O)[C@H](Cc1ccc(O)cc1)NC(=O)[C@H](CCCNC(=N)N)NC(=O)[C@H](CC(N)=O)NC(=O)[C@H](CCCNC(=N)N)NC(=O)[C@H](CC1CCCCC1)NC(=O)[C@H](CCC(=O)O)NC(=O)[C@H](CCCCN)NC(C)=O)[C@@H](C)O)C(=O)N[C@@H](CCCNC(=N)N)C(=O)N[C@@H](CO)C(=O)N[C@H](C(=O)N[C@@H](Cc1ccc(O)cc1)C(=O)N[C@@H](CCC(=O)O)C(=O)N[C@@H](CCC(=O)O)C(=O)NCC(=O)N[C@@H](CCC(=O)O)C(N)=O)[C@@H](C)CC` gave an enrichment of 4.74 (binding, affinity selection mass spectrometry; 1 h, 4 °C, unit not given; baseline: control-subtracted).

Excerpt of the above:
`[2H]c1cc(C)c(NC(=O)c2cnc(Nc3cc(N4CCCCC4)nc(C)n3)s2)c(Cl)c1` gave an inhibition of under 30% (0.01 µM).
